# Published values gathered from unrelated publications.
# ± gives the spread as reported.
# Histone acetyltransferase RTT109 with Vps75: Histone acetyltransferase RTT109, with Vps75 (Saccharomyces cerevisiae, UniProt Q07794)
# Sequence of UniProt Q07794 (whole entry, looked up): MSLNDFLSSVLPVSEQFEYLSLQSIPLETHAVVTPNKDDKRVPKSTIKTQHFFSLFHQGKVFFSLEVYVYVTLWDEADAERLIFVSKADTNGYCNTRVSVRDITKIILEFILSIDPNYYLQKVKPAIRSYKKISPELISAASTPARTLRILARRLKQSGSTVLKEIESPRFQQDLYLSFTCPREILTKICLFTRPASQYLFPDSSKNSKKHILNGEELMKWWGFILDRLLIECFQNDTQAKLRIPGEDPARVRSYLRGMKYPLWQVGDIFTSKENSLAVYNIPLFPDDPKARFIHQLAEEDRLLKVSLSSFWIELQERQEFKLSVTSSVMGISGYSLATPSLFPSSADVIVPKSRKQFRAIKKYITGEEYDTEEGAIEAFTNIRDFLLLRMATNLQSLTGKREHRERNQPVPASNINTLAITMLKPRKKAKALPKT
# UCHL1: Ubiquitin carboxyl-terminal hydrolase isozyme L1 (UCHL1, Homo sapiens, UniProt P09936)
# Sequence of UniProt P09936 (whole entry, looked up): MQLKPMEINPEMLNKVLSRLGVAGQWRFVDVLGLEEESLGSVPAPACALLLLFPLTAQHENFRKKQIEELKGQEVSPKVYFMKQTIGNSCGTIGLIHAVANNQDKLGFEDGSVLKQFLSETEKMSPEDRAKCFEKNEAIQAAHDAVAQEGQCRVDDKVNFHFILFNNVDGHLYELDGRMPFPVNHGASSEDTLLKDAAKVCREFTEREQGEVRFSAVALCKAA
# SIRT2: NAD-dependent protein deacetylase sirtuin-2 (SIRT2, Homo sapiens, UniProt Q8IXJ6)
# Sequence of UniProt Q8IXJ6 (whole entry, looked up): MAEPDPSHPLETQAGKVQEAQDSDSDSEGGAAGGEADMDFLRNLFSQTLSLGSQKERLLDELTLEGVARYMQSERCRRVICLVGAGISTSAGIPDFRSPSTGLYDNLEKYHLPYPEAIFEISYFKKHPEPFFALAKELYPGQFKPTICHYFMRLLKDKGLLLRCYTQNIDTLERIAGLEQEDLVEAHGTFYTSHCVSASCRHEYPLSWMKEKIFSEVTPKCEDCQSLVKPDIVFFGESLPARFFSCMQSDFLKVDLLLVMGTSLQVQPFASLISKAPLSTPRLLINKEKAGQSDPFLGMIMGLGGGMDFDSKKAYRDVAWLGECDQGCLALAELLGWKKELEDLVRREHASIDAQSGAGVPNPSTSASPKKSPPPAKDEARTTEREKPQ
# serine/threonine phosphatase Stp1: serine/threonine phosphatase Stp1 (Staphylococcus aureus, UniProt A0A0H2XF73)
# BRD4 BD1: Bromodomain-containing protein 4, BD1 (BRD4, Homo sapiens, UniProt O60885)
# Sequence of UniProt Q8WUI4 (whole entry, looked up): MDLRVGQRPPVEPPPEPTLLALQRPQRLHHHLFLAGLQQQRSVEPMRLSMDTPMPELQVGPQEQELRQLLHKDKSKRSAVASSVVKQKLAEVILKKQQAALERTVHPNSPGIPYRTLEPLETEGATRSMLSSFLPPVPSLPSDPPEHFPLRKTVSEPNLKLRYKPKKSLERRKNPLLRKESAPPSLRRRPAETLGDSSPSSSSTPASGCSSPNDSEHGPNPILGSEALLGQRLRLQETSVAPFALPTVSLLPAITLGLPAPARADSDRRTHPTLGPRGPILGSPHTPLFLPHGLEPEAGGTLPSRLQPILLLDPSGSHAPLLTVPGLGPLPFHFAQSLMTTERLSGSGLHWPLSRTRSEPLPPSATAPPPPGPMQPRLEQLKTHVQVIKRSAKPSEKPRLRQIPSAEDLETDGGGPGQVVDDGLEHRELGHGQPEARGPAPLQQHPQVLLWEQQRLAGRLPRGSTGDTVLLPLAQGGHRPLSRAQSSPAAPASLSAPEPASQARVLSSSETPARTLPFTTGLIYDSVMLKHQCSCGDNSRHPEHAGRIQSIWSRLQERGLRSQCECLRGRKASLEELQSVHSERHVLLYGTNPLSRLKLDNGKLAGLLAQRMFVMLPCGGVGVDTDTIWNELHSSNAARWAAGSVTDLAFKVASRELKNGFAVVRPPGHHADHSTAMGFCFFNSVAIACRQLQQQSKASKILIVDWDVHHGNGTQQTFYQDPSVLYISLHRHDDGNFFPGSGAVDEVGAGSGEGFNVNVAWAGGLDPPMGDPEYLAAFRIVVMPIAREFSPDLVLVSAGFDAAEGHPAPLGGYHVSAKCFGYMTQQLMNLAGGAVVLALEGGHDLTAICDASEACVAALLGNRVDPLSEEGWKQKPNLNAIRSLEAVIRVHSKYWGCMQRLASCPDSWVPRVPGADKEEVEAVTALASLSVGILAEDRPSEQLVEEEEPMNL
# Sequence of UniProt P35222 (whole entry, looked up): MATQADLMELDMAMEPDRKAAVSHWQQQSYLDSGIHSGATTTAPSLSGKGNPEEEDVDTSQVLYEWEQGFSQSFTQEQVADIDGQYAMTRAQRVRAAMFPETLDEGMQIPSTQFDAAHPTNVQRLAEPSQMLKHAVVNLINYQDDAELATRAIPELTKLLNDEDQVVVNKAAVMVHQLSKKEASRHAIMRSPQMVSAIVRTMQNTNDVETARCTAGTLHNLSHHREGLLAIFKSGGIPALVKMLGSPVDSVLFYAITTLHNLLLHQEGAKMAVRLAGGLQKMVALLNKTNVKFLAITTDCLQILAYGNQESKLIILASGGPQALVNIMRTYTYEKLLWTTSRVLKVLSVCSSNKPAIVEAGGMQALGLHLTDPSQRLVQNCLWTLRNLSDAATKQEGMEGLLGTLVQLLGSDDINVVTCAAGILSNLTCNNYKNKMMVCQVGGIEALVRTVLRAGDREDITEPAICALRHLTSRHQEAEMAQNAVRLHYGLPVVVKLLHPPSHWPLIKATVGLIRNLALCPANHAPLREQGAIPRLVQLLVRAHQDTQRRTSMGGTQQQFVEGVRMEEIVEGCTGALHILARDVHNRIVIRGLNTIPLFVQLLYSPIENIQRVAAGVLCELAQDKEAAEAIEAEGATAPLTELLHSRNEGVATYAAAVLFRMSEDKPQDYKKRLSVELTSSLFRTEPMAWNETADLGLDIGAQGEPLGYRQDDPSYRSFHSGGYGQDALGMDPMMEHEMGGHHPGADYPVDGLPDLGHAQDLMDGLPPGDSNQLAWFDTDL
# Sequence of UniProt Q07912 (whole entry, looked up): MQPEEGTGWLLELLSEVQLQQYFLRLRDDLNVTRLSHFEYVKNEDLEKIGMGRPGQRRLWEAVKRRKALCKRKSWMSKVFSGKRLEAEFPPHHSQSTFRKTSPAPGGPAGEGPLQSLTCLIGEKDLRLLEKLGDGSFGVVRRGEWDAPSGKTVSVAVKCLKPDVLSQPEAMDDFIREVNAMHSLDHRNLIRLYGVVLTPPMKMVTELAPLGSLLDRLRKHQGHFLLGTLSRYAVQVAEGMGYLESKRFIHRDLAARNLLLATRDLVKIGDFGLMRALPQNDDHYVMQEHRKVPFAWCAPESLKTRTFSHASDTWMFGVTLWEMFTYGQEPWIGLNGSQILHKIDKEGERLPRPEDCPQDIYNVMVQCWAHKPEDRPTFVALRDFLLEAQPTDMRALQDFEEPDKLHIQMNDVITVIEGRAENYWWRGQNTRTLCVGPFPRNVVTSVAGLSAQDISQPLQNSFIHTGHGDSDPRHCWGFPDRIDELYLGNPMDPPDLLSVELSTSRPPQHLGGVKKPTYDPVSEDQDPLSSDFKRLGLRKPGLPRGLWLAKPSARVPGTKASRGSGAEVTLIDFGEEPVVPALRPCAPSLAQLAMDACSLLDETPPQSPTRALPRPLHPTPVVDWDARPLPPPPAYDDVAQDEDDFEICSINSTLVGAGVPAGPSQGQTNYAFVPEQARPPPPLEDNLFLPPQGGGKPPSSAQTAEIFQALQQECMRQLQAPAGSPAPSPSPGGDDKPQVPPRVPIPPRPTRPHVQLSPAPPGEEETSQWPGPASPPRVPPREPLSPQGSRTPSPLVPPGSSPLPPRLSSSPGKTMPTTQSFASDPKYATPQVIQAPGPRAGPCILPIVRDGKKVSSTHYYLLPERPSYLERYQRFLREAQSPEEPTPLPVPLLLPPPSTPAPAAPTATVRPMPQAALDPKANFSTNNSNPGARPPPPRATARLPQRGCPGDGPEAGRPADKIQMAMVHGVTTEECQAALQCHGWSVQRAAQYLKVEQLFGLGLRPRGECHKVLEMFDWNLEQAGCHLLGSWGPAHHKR
# Sequence of UniProt P97612 (whole entry, looked up): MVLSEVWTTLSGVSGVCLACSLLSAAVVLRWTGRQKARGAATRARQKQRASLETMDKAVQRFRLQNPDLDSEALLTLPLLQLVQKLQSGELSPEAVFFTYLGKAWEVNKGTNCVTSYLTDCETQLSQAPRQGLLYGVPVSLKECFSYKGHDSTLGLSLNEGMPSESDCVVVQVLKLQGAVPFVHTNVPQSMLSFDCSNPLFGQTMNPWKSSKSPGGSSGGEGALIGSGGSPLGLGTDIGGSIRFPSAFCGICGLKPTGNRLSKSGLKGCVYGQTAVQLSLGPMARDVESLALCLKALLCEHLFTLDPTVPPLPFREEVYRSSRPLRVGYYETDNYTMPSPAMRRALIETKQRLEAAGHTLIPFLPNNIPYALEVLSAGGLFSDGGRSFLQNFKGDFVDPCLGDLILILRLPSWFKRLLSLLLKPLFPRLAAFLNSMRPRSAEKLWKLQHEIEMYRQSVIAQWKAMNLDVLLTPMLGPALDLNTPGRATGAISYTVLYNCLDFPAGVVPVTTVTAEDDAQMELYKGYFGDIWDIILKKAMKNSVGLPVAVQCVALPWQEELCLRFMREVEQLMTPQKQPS
# Sequence of UniProt P49841 (whole entry, looked up): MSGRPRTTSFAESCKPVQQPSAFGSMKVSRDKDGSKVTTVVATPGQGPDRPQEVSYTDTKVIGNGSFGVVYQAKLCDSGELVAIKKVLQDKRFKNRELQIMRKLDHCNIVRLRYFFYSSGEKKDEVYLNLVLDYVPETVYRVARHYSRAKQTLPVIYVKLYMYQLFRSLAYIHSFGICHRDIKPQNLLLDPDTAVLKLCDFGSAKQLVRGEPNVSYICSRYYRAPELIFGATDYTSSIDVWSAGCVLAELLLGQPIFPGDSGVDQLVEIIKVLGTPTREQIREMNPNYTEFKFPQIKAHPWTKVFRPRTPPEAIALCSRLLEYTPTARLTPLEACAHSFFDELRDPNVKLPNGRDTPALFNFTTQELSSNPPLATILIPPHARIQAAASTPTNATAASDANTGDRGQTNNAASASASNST
Compound,target,assay,system,setting,IC50 [µM]
O=S(=O)(Nc1ccc(O)c(Br)c1)c1ccc2ccccc2c1,Histone acetyltransferase RTT109 with Vps75,"enzyme activity, inhibitor, HTS, CPM-based, dose response",,,> 125
Cn1c(-c2ccccc2)c(C(=O)CCl)c2ccccc21,UCHL1,"inhibitor, ubiquitin-rhodamine cleavage",,2 h preincubation,> 200
CC(C)(/C=C(\C#N)C(=O)N1CCC[C@@H](n2nc(-c3ccc(Oc4ccccc4)cc3F)c3c(N)ncnc32)C1)N1CCN(C2COC2)CC1,"LYN (Homo sapiens, UniProt P07948)",,,,0.754
Cc1ccc2[nH]nc(-c3nnc(Nc4ccc(F)cc4)s3)c2c1,thymidine phosphorylase,"enzyme activity, inhibitor, spectrophotometric",,"pH 7.5, 25 °C",6.8 ± 0.93
CC(C)=CCc1c(O)cc(O)c2c1O[C@H](c1ccc(O)cc1)CC2=O,"Cytochrome P450 2C8 (CYP2C8, Homo sapiens, UniProt P10632)",inhibitor,,pH 7.4,0.6 ± 0.1
COc1c(Cl)cccc1Nc1c(-c2ccncc2OC[C@@H]2COCCO2)[nH]c2c1C(=O)NCC2,"EPHA7 (Homo sapiens, UniProt Q15375)","kinase activity, inhibitor, TR-FRET",,added: ATP 2 mM,2.6
O=C(Nc1cccnn1)N1CCC(=Cc2cccc(Oc3ccc(C(F)(F)F)cn3)c2)CC1,"Faah (Rattus norvegicus, UniProt P97612)","enzyme activity, inhibitor",rat brain membranes,60 min preincubation,0.002
Cn1nc2c(=O)n(C3CC3)ccc2c1[C@](O)(c1cnc(C(F)(F)F)c(Cl)c1)C(F)(F)F,"Dihydroorotate dehydrogenase (Canis lupus familiaris, UniProt A0A8I3MWX2)","enzyme activity, inhibitor, DCIP reduction",,,> 30
Cc1cc(C)nc(SCC(=O)Nc2ncc(Cc3cccc(OCc4cn(Cc5ccccc5C)nn4)c3)s2)n1,SIRT2,,,,0.158
O=c1ccc2c(OCCCCOc3cccc(O)c3)c3ccoc3cc2o1,"Kcna3 (Mus musculus, UniProt P16390)","ion current, blocker, whole-cell patch clamp",L929 expressing Kcna3,,0.14
Cc1cnc(-c2ccc(-c3ccc(NC(=O)Nc4c(F)cc(F)cc4F)cc3F)c3c2C(=O)NC3)[nH]1,"BTK (Homo sapiens, UniProt Q06187)","enzyme activity, inhibitor, mobility shift",,added: ATP 1 mM,0.0093
O=C(Nc1ccccc1)N1CCN(c2nc(-c3ccccc3)ns2)CC1,Histone acetyltransferase RTT109 with Vps75,"enzyme activity, inhibitor, HTS, CPM-based, dose response",,,> 125
CC1(C)CC[C@]2(C(=O)O)CC[C@]3(C)C(=CC[C@@H]4[C@@]5(C)C[C@@H](O)[C@H](O)C(C)(C)[C@@H]5CC[C@]43C)[C@@H]2C1,serine/threonine phosphatase Stp1,"phosphatase activity, inhibitor",,,> 135
CCc1ccc(Cn2nnc3c4ccc(F)cc4c(=O)[nH]c32)cc1,"PARP12 (Homo sapiens, UniProt Q9H0J9)",,,,> 10
O=C(Nc1cnccc1-c1ccccc1)c1c[nH]c2ncc(-c3ccccc3)cc12,"GSK3B (Homo sapiens, UniProt P49841)","kinase activity, inhibitor",,,0.00035 ± 6e-05
O=C1CC(c2cn(Cc3ccccc3)c3ccccc23)C(=O)N1c1ccc(Br)cc1 (centres unmarked),Histone acetyltransferase RTT109 with Vps75,"enzyme activity, inhibitor, HTS, CPM-based, dose response",,,> 125
CC1=CC(=O)C(C(C)C)=CC1=O,"LRRK2 (Homo sapiens, UniProt Q5S007)","kinase activity, radiometric",,added: MBP substrate,0.674
CCCSc1nsc(NC(=O)CN2CCN(c3ccccc3)CC2)n1,Histone acetyltransferase RTT109 with Vps75,"enzyme activity, inhibitor, HTS, CPM-based, dose response",,,> 125
O=C(Cn1c2ccccc2c(=O)c2ccccc21)Nc1ccccc1Oc1ccccc1,"Catenin beta-1, with BCL9 HD2 (CTNNB1, Homo sapiens, UniProt P35222)","BCL9 binding, inhibitor, AlphaScreen",,,26.4
O=C(NNC1CC(=O)N(c2ccc(Br)cc2)C1=O)c1cccc(F)c1 (centres unmarked),Histone acetyltransferase RTT109 with Vps75,"enzyme activity, inhibitor, HTS, CPM-based, dose response",,,> 125
CN(C)C(=O)c1cc2cnc(Nc3cncc(-c4ccc5c(=O)cc(N6CCOCC6)oc5c4)c3)nc2n1C1CCCC1,BRD4 BD1,inhibitor,,,> 10
CCCCCCCCCCCCNC(=S)NCCCC[C@H](NC(=O)C1CCCCC1)C(=O)N[C@H](C)C(=O)N[C@@H](CCCNC(=N)N)C(N)=O,SIRT2,"enzyme activity, inhibitor",,,4.9 ± 1
Cc1cc([C@@H](C)Nc2ccccc2C(=O)O)c2nc(N3CCCCC3)cc(=O)n2c1,"Phosphatidylinositol 4,5-bisphosphate 3-kinase catalytic subunit alpha isoform, with p85 alpha (PIK3CA, Homo sapiens, UniProt P42336, E542K)",ADP-Glo,,added: ATP 10 µM,> 10
O=C(NO)c1ccc(Cn2cnc3c(Nc4ccc(Cl)cc4)ncnc32)cc1,"HDAC7 (Homo sapiens, UniProt Q8WUI4)","enzyme activity, inhibitor, continuous fluorogenic",,,0.048
CN1CCN(c2ccc(Nc3ncc4cc(C#N)c(=O)n(C5CCCC5)c4n3)cc2)CC1,"TNK2 (Homo sapiens, UniProt Q07912)",,,,0.11
Cc1nc(-c2ccc(C(F)(F)F)c(F)c2)nc(Nc2ccc(CC(=O)O)cc2)c1C,"PDE4B (Homo sapiens, UniProt Q07343)","enzyme activity, inhibitor",,,120 ± 34.1
CN(C)C(=O)c1cc2cnc(Nc3cccc4c(=O)cc(N5CCOCC5)oc34)nc2n1C1CCCC1,"Bromodomain-containing protein 4, BD2 (BRD4, Homo sapiens, UniProt O60885)",inhibitor,,,> 10
COc1ccc(-c2nnc(S)[nH]2)cc1,Histone acetyltransferase RTT109 with Vps75,"enzyme activity, inhibitor, HTS, CPM-based, dose response",,,55 ± 2
N=C(N)N1CCc2ccccc2C1,"Serine protease 1 (PRSS1, Bos taurus, UniProt P00760)","enzyme activity, inhibitor",,,220 ± 30
O=C(O)[C@H]1O[C@@H](Oc2cc3oc(-c4ccccc4)cc(=O)c3c(O)c2O)[C@H](O)[C@@H](O)[C@@H]1O,serine/threonine phosphatase Stp1,"phosphatase activity, inhibitor",,,> 224
Fc1ccc(Nc2nc(-c3ccccc3)no2)cc1,Histone acetyltransferase RTT109 with Vps75,"enzyme activity, inhibitor, HTS, CPM-based, dose response",,,> 125
CC[C@@H]1[C@H](F)C(=O)N[C@@H]1COc1nccc2cc(C(N)=O)c(OC)cc12,"LATS2 (Homo sapiens, UniProt Q9NRM7)","ATP-site probe binding, ActivX profiling",THP-1 cell lysate,Lys2 site,0.88
CC1(C)CC[C@]2(C(=O)O)CC[C@]3(C)C(=CC[C@@H]4[C@@]5(C)C[C@@H](O)[C@H](O)C(C)(C)[C@@H]5CC[C@]43C)[C@@H]2C1,"ACE (Oryctolagus cuniculus, UniProt P12822)",enzyme activity,,,25.7 ± 0.99
CSc1ccc(-c2nsc(N)n2)cc1,Histone acetyltransferase RTT109 with Vps75,"enzyme activity, inhibitor, HTS, CPM-based, dose response",,,> 125
CC(=O)c1cnc2ccc(-c3cc(Cl)c(O)c(Cl)c3)nc2c1N[C@H]1CC[C@H](CN(C)C)CC1,"Receptor-like protein kinase FERONIA (FER, Arabidopsis thaliana, UniProt Q9SCZ4, Y610A)","kinase activity, inhibitor, ADP-Glo",,,> 100
CN(C)C(=O)c1cc2cnc(Nc3ccc(-c4cccc5c(=O)cc(N6CCOCC6)oc45)c(F)c3)nc2n1C1CCCC1,BRD4 BD1,inhibitor,,,0.0229
CCc1cccc(CC)c1NC(=O)C(C#N)=Cc1ccc(C#N)cc1,UCHL1,"inhibitor, ubiquitin-rhodamine cleavage",,2 h preincubation,> 200
O=C(O)c1ccc2nc(-c3ccc(OCc4ccccc4COc4ccc(-c5nc6ccc(C(=O)O)cc6[nH]5)cc4)cc3)[nH]c2c1,"Beta-lactamase (Escherichia coli, UniProt Q8VNN1)","enzyme activity, inhibitor",,,210 ± 25

# Some of these lines once more:
Compound,target,assay,system,setting,IC50 [µM]
N=C(N)N1CCc2ccccc2C1,"Serine protease 1 (PRSS1, Bos taurus, UniProt P00760)","enzyme activity, inhibitor",,,220 ± 30
Cn1nc2c(=O)n(C3CC3)ccc2c1[C@](O)(c1cnc(C(F)(F)F)c(Cl)c1)C(F)(F)F,"Dihydroorotate dehydrogenase (Canis lupus familiaris, UniProt A0A8I3MWX2)","enzyme activity, inhibitor, DCIP reduction",,,> 30
O=C(Nc1ccccc1)N1CCN(c2nc(-c3ccccc3)ns2)CC1,Histone acetyltransferase RTT109 with Vps75,"enzyme activity, inhibitor, HTS, CPM-based, dose response",,,> 125
CCCSc1nsc(NC(=O)CN2CCN(c3ccccc3)CC2)n1,Histone acetyltransferase RTT109 with Vps75,"enzyme activity, inhibitor, HTS, CPM-based, dose response",,,> 125
